Assay results from different studies.
A part holds a random share of what one study measured.

Sample 1 — technique: aptamer microarray, sandwich; form: DNA with 2'F-ANA; matrix: in vitro; tested at: 200 nM; with: Cy3 exosite-II aptamer, 400 nM; direction: higher = stronger binding; endpoint: mean fluorescence intensity; sequence: GGTTGGTGTGGTTGG
Target: Prothrombin, mature alpha-thrombin (F2, Homo sapiens, UniProt P00734)
Setting: whole 15-mer aptamer, many near background
2'F-ANA at 2 6 7 12 13 15: 543 a.u.
2'F-ANA at 10: 222 a.u.
2'F-ANA at 1 2 4 5 8 10 11 13 14: 50.2 a.u.
2'F-ANA at 1 2 3 4 5 8 10 11 12 14: 82.4 a.u.
2'F-ANA at 1 2 4 5 6 12 14 15: 48.2 a.u.
2'F-ANA at 1 3 4 5 6 7 8 9 10 11 14: 58.8 a.u.
2'F-ANA at 2 4 6 7 9 10 13 14: 55.4 a.u.
2'F-ANA at 3 4 9 12 13 15: 686 a.u.
2'F-ANA at 1 2 4 6 7 11 15: 92.2 a.u.
2'F-ANA at 1 3 6 9 10 15: 75.4 a.u.
2'F-ANA at 1 3 4 7 12: 445 a.u.
2'F-ANA at 3 4 5 8 9 11 12 15: 212 a.u.
2'F-ANA at 1 3 4 5 6 7 8 10 11 13 15: 50.5 a.u.
2'F-ANA at 3 4 7 10 11 12 14: 249 a.u.
2'F-ANA at 1 2 6 7 9 11 13: 90.8 a.u.
2'F-ANA at 1 2 3 6 7 8 11 12 13 14: 94.7 a.u.
2'F-ANA at 2 5 8 10 11 12 13: 104 a.u.
2'F-ANA at 1 4 8 12 13 14 15: 57.6 a.u.
2'F-ANA at 1 3 6 8 9 10 12 13 15: 100 a.u.
2'F-ANA at 1 2 3 5 6 7 11 13 14 15: 48.9 a.u.
2'F-ANA at 5 11 12 14 15: 45 a.u.
2'F-ANA at 1 10 11 12: 62.2 a.u.
2'F-ANA at 2 3 4 5 9 10 15: 91.7 a.u.
2'F-ANA at 2 4 6 7 10: 94.7 a.u.

Sample 2 — technique: protein-binding microarray; form: double-stranded DNA, one strand shown; matrix: in vitro; tested at: 2200 nM top; setting: 60-bp whole probe; with: salmon DNA 0.4 mg/ml; relative to: random background probes; direction: higher = stronger binding; endpoint: fitted relative affinity; shared flanks, not repeated: GCCTAGCAC … GTCTTGATTCGCTTGACGCTGCTG
Target: Interferon regulatory factor 7, full length, phosphomimetic (IRF7, Homo sapiens, UniProt Q92985, residues 1-503, S471D/S472D/S475D/S476D/S477D/S483D/S484D/S487D)
Residues (chain): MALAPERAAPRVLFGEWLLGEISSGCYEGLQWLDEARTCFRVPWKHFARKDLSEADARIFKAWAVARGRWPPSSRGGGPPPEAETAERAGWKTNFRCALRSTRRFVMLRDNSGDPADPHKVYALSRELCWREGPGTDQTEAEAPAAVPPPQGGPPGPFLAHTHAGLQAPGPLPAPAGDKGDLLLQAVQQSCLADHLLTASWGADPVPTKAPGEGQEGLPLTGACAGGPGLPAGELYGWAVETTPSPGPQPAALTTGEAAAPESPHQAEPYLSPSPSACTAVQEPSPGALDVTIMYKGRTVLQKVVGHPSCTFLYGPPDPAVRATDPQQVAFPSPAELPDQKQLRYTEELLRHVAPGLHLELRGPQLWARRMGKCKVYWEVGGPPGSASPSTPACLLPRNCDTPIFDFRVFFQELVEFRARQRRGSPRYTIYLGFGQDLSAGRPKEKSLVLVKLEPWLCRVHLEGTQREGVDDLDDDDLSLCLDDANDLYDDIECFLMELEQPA
TTTTTTTTGTATTTTTGATAGTGCTAG: 1.72 z-score
TCATGTGTTACTTTCTAACTGTGCTAG: 2.43 z-score
CTAGTTGTACTTTCTATCTCTGTGCTA: 4.14 z-score
GACGGTATCGGGCTCGGGACGTGCTAG: -0.514 z-score
GAGGATTTCAGTTCCGAGACGTGCTAG: 0.827 z-score
GACGGTACCGGGACTGGGGACGTGCTA: -0.575 z-score
GACCATCTCAGTTTCGAGACGTGCTAG: 3.67 z-score
TTAGAACTGAGACTGGGTTAGTGCTAG: -0.608 z-score
TTTTTTTTTTTTTTTTACTTGTGCTAG: 2.06 z-score
GACGGTTTCCCTTTCCTGACGTGCTAG: 5.69 z-score
TTAGATTGCGGGTTTCGATTAGTGCTA: 3.05 z-score
GACGATATCGGGTATCGAGATGTGCTA: 0.255 z-score
CCCAGGACCCTGGAACTGGCGTGCTAG: -1.08 z-score
TTAGATAACAGACTGGATTAGTGCTAG: -0.525 z-score
GACGGTTTCCTGCTCCTGACGTGCTAG: 2.29 z-score
GACTCTTTCTGTCAGTTTTGGTGCTAG: 1.44 z-score

Sample 3 — technique: universal PBM; form: double-stranded DNA, one strand shown; matrix: in vitro; tested at: 600 nM; direction: higher = stronger binding; endpoint: E-score
Target: Sal-like protein 4, full length isoform A (SALL4, Homo sapiens, UniProt Q9UJQ4, residues 1-1053)
Sequence of UniProt Q9UJQ4 (whole entry, looked up): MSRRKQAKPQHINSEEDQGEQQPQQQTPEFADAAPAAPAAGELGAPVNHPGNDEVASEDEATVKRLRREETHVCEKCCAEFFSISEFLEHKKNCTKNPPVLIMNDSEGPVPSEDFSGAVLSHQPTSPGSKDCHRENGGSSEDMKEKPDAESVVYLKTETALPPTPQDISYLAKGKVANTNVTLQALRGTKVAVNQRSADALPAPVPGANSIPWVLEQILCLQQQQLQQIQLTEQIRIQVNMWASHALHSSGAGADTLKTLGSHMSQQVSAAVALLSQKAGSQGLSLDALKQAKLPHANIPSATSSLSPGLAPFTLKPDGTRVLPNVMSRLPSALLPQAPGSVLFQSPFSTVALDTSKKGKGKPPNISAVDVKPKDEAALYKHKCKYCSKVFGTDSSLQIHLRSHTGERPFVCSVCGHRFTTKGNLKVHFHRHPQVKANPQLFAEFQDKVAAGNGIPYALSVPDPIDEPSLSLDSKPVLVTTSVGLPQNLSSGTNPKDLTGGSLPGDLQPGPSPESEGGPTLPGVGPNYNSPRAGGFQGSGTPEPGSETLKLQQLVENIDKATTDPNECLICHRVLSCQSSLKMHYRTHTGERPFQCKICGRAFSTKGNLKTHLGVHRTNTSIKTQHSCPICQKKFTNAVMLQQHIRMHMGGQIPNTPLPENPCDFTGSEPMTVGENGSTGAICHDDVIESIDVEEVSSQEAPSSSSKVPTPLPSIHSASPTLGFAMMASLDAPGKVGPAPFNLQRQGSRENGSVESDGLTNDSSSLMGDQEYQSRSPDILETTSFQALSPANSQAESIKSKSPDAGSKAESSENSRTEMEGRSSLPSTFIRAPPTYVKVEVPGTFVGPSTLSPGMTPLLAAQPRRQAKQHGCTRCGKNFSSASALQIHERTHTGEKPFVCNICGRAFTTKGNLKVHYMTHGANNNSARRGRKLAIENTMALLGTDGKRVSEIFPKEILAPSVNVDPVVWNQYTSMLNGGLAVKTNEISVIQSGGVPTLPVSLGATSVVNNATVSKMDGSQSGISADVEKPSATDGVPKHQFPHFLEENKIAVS
Setting: 8-mer, flanks averaged, mean of replicates
ACCGACCA: -0.193
GAGTCGAA: -0.0522
AATGATGT: 0.237
CGAAGCAG: -0.126
AATCCCCG: -0.125
TCATGAAA: 0.147
AGTGGGAG: -0.153
CTCCAGAC: -0.0161
GCACATAC: -0.0978
AGTAGCAT: 0.0562
CTGCTTGC: -0.105
GTCAGCTA: -0.0912
GGTATCAA: -0.0246
CAGCACGC: -0.18
AAGGTGTG: -0.0136
AGAGGGCG: -0.23
CGCTCATA: 0.013
GTGAAACA: 0.124
CATAGAAC: -0.151
ACCGTTTC: -0.13
AATAAAGC: 0.267
CAAATCCA: 0.122
CTCACGAC: -0.183
CAGTCATC: -0.165
CAAGCCAG: -0.166

Sample 4 — technique: RNA Bind-n-Seq; form: RNA; matrix: in vitro; tested at: 365 nM; relative to: no-protein control; direction: higher = stronger binding; endpoint: RBNS enrichment (R)
Target: RNA binding protein fox-1 homolog 2, RRM domain, GST-SBP tag (RBFOX2, Homo sapiens, UniProt O43251-10, residues 100-194)
Setting: natural RNA segment, single round, ends assumed
Residues (chain): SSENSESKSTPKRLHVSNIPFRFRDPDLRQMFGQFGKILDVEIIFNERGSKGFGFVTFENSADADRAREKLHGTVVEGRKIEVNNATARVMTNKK
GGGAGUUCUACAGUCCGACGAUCUAGGACCGUUUUCUCCCUCUCUCUUGUCCCUAUGGUAAAGUUCUCCCUGGCGUCCUUCUGAAACUACACCAUGUGGCCCCUUGGAACUAAUCCCAAGUCAAUGCGUGUAUUGGAAUUCUCGGGUGCCAA: 0.878
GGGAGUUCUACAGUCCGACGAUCGUAGACAGCGUGAAUACGGACAGGAGGUGAUGCCAUAUUCACAGUGGGGGAUGGAGGGCCCCCACCCCUGCUUCACAGAAUAAUGGGAAGUGACUCUAGUCUUUGUAAGCUGGAAUUCUCGGGUGCCAA: 0.713
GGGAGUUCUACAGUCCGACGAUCUGAGAUAUUUACAGUAUUAUUAAAGGGUUGGGCUGUUUUGCAUAACAAACUUUUUAUUGGCAUACCCAAAGAGCACAAGAUUGUCUGUCUGCUCGUUUUUAAAAAUUAAAUGGAAUUCUCGGGUGCCAA: 0.542
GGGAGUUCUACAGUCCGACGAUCCGUCUGACCUUUCUCUCUGCACUUAGGAUUGGUGUCCACUUGUAGAUUUCUUUCAACACAGUAUAAGAAUGUGAUAUAUUGUAUAUUGGAAAGUAUUUACCUUAUUUAUAUGGAAUUCUCGGGUGCCAA: 24.2
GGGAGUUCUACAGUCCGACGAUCAAACUUACAUCUAGCAACUUGGAAAGCACUUUCUCUGGGGAUCUUCUUUUGUAACUUUGCAGACAAAUAAGUAUGAGUCACUGGGGAGAGAGUUUGUUAUUGAAAUAGAUUGGAAUUCUCGGGUGCCAA: 0.555
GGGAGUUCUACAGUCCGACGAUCAUACCAUUCUGUCUUUUAGACUUUCAACAUCUGCUAUGGUGGAGCACAAAUGUUAUUUAAAAGCAUCUUCUCACCUACAUAGAAGUAAACAAAACACACAAUUUGGGAUUUGGAAUUCUCGGGUGCCAA: 0.545
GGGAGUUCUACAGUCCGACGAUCUGGGGCUGAGGAACUGACGUGGAGCGGGGUAUGAAGAGCUUGCUUUGAUUUACAGCAAGUAGAUAAAUAUUUGACUUGCAUGAAGAGAAGCAAUUUUGGGGAAGGGUUUGUGGAAUUCUCGGGUGCCAA: 2.96
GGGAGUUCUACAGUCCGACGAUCAUUGAAACUGUUGGUGGUGAUGGAUUUUGUAGCUUGCUGCUUGUUUCACCACUGGUCAAAUUUUAACCAUUAAAUUGCCAUUCACUUUUAGAAUCUUGUAUUUAAGUUUUUGGAAUUCUCGGGUGCCAA: 0.983
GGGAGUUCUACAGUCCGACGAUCUGCUUCGCCCCACUGCAUAGCUGUGUUAAGCUACAUGGCUUUAAUGAUAAAUGGGUUUAUUUCUAAGGUGUGUGGGCCAGAUACCUUGUGUUUCUUAGAUACCCACGUGGUGGAAUUCUCGGGUGCCAA: 0.302
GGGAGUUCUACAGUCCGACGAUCUGGAUGGAACUCACCUGCCUGAACUGAGCAGGAAUGUCAGUCUUCCACUGCCCCUCCCUGCCAUCUUCUGCUACUUAGCUUGGGAGUUGAUGGUUGCAGAAGCCACACAGUGGAAUUCUCGGGUGCCAA: 0.279
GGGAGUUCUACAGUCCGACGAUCGUAGUUCCAGUGGGACCAACCUGUGAUGAAUAUGCCCAAAAGGUACGACAACAAUUCCACGAUGCCAAAUUCAUGGCAGACAUUGAUCUGGAUCCAGGCUGUACAUUGAAUGGAAUUCUCGGGUGCCAA: 0.563
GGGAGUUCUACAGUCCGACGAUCCUGUUAUUUAUCCCUCAUUCAUCCAUCCGUUCAUUCAUUCAGCCUUCAAUCAACAUCUCUUGAGUGUCUAUUAUGUACAGGACAUGUACUGAGACAAAAAGGAAACAUAAUGGAAUUCUCGGGUGCCAA: 0.375

Sample 5 — technique: protein binding microarray; form: double-stranded DNA, one strand shown; matrix: in vitro; tested at: not given; relative to: not given; direction: higher = stronger binding; endpoint: E-score
Target: Histone acetyltransferase KAT6A, winged helix 2, GST fusion (KAT6A, Homo sapiens, UniProt Q92794, residues 85-181)
Setting: 8-mer, flanks averaged, mean of 2 arrays, mostly near background
Target sequence (chain): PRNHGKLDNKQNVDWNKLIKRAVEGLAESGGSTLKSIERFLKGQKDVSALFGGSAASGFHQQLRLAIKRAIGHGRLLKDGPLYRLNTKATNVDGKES
AATCAGTC: -0.0103
AGAGCGAC: -0.0345
CAATGGTC: -0.0993
GTGTACAC: 0.0315
AGGCACTC: -0.0423
CATGATTA: 0.024
AGAACTAC: -0.042
GCTTCTCA: 0.0271
CAAGGCTA: 0.0652
AATATTCC: 0.284
GCTTAACC: -0.0226
GATATTAA: 0.135
ACCCGAGT: 0.0835
CGAGTACC: 0.0301
ATCACATC: -0.185
AAACTAAT: 0.216
ACCACTTC: -0.114
AGTCAAGC: -0.0709
CAATTTGC: -0.0948
CTCATATC: -0.0567
GCTCTAAA: 0.0172
GATTTGTA: 0.0703
ACGTTCCC: -0.175
AGCTTTTG: 0.0338
CTCGGATC: 0.0774
